Assay results of several laboratories.
Each numbered part is a random draw from the data of one study; scales do not carry over between parts.

Study 1 — method: protein-binding microarray; molecule type: double-stranded DNA, one strand shown; medium: in vitro; concentration: 940 nM top; notes: 60-bp whole probe; together with: salmon DNA 0.4 mg/ml; baseline: random background probes; direction: higher = stronger binding; shared flanks, not repeated: GCCTAGCACTTA … GTCTTGATTCGCTTGACGCTGCTG
Target: Interferon regulatory factor 5, full length, phosphomimetic (IRF5, Homo sapiens, UniProt Q13568-2, residues 1-514, S451D/S453D/S456D/S462D)
Sequence	fitted relative affinity
GGACCGGGGTATCGGTTAGTGCTA	2.77 z-score
GGTTCCCTTTTCTTTTAGTGCTAG	0.915 z-score
GATTTCAGTCTCGATTAGTGCTAG	4.22 z-score
GGTCTCGGTCTCGGTGAGTGCTAG	5.08 z-score
GGTCTCGGTTTCGTTTAGTGCTAG	7.66 z-score
TGTTTCCTACTGCTTTAGTGCTAG	0.791 z-score

Study 2 — method: protein binding microarray; molecule type: double-stranded DNA, one strand shown; medium: in vitro; concentration: not given; baseline: not given; direction: higher = stronger binding
Target: Histone acetyltransferase KAT6A, both winged helices, GST fusion (KAT6A, Homo sapiens, UniProt Q92794, residues 1-181)
Notes: 8-mer, flanks averaged, mean of 2 arrays, mostly near background
Construct (chain): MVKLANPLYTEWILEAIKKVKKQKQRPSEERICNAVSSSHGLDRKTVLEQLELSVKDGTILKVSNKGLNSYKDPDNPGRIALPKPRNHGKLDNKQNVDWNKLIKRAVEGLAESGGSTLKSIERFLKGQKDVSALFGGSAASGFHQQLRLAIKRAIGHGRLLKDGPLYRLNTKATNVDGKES
Sequence	E-score
CCAGGTCG	-0.173
AGGGCACC	-0.115
AGTCCCCA	-0.27
GTCAAAAC	0.143
AAGGTAAC	-0.102
ATCAGATG	-0.133
CTTCCGCC	0.252

Study 3 — method: RNA Bind-n-Seq; molecule type: RNA; medium: in vitro; concentration: not given; baseline: input RNA pool; direction: higher = stronger binding
Target: RING finger protein unkempt homolog, zinc fingers 1-6, GST-SBP tag (UNK, Homo sapiens, UniProt Q9C0B0, residues 30-357)
UniProt Q9C0B0, sequence (30-357, looked up): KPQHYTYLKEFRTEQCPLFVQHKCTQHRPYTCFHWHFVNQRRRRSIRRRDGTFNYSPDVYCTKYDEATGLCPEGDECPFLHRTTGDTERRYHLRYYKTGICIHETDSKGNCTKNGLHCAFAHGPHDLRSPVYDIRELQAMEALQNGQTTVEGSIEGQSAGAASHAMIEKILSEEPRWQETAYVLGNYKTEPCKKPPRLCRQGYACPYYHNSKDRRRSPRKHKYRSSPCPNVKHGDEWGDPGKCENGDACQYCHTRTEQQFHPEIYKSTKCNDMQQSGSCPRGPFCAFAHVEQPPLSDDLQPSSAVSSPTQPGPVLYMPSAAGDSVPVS
Notes: RNA with constant flanks, human and mouse sites, ends assumed
Shared flanks, not repeated: GGGAGUUCUACAGUCCGACGAUC … CAACAGAGGAUUGAGCAUCA
Sequence	bound/input enrichment [ratio]
CCAGUUGUAUACAAAUACCUAACAGAGAAAGCAGUAAAAUGGUCACAGCAGGUUGAACGUCAUAGAGAACAUCUCAUUAACUACAUUAUAUUUUUGAGAAUAACACCAUUUCUGCCUAAU	3.06
CAAGGCAUCUGUCCUGAAAGCUGUUAAUUUAUGGUCUAGCAGAUUUAUAUUAUAUGCAGAUAAUAAUUAACUGGGGAUAAAAGAAUGGCAAGGGGUGACACAAAGUAGCAAACUGAAUAC	0.443
GCUUCGGUGCUGAUGGGUCUUGUUCUUAUCUGCGUCUGCUCGAAAACCCAUAGCUUGAAAGGCCUGGCCAGGGGAGGAGCACAGAUAUUUUCCUGUAUAAUUCCAGAAUGUCUUCAGAGA	0.149
GCUGCUUUUCACAGUUUAGUGGGUUUGGCAGCUGUACUUACUUGCAUAGCUGAGUACAUUAUAGAAUAUCCACAUUUUGCUACGGAUGCAGCAGCAAAUCUCACCAAGAUUGUGGCCUAC	0.873
UCUCAGCUAAUGGUAUAAAUGGAUGGUCAGAAUUGAGAUGAAGGGUUUCUAAGAGAGAUAUACAUAAGAAUUGAUCCUUUAAUCUCUGCUGAAGUGAGGGAGUCUCUGGUUUCUAGGGCA	0.701

Further values, each from its own experiment
Molecule	target	assay	system	conditions	scale	measurement	result
PhoQ, residues 284 288 289 292 302 303 GANMMA	PhoP, residues 12 14 15 18 19 NHFIF (Escherichia coli, UniProt P23836)	Sort-seq, measured: YFP reporter	E. coli	PhoQ-PhoP variant library, together with: 10 µM Mg2+	baseline: high Mg2+ state, higher = stronger signaling	fold induction	8.81

A few entries again (study 3):
Sequence	bound/input enrichment [ratio]
UCUCAGCUAAUGGUAUAAAUGGAUGGUCAGAAUUGAGAUGAAGGGUUUCUAAGAGAGAUAUACAUAAGAAUUGAUCCUUUAAUCUCUGCUGAAGUGAGGGAGUCUCUGGUUUCUAGGGCA	0.701
GCUUCGGUGCUGAUGGGUCUUGUUCUUAUCUGCGUCUGCUCGAAAACCCAUAGCUUGAAAGGCCUGGCCAGGGGAGGAGCACAGAUAUUUUCCUGUAUAAUUCCAGAAUGUCUUCAGAGA	0.149
